Experimental data of several laboratories.
Every numbered part comes from another study and shows a few of its results, in no order. Substitutions count along the parent as printed.
UniProt Q9FKM7, sequence (whole entry, looked up): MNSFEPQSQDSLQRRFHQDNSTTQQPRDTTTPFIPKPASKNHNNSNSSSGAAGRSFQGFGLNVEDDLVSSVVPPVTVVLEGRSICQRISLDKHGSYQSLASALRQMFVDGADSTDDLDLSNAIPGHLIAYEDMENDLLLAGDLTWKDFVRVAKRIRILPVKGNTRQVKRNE
UniProt Q9XID4, sequence (whole entry, looked up): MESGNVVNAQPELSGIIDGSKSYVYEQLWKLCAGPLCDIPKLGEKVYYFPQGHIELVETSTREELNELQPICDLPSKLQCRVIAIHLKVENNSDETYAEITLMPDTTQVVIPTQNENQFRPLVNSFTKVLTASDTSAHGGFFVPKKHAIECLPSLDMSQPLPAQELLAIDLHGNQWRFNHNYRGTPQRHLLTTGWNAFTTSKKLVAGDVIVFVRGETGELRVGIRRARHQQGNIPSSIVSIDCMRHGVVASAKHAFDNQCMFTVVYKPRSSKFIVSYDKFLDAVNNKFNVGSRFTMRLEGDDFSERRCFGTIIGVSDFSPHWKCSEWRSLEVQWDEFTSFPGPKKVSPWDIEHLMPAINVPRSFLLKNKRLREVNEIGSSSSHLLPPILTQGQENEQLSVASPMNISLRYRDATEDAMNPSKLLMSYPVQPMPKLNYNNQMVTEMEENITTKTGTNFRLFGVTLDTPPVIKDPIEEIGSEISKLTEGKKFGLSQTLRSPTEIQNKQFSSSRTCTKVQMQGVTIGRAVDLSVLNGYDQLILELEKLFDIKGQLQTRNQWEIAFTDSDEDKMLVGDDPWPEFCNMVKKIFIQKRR
UniProt Q9M1R4, sequence (whole entry, looked up): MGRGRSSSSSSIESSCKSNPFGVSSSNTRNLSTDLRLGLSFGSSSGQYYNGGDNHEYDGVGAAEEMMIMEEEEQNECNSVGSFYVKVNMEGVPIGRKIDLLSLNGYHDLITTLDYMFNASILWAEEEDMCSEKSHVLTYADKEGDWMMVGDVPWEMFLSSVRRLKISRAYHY
UniProt Q84WU6, sequence (whole entry, looked up): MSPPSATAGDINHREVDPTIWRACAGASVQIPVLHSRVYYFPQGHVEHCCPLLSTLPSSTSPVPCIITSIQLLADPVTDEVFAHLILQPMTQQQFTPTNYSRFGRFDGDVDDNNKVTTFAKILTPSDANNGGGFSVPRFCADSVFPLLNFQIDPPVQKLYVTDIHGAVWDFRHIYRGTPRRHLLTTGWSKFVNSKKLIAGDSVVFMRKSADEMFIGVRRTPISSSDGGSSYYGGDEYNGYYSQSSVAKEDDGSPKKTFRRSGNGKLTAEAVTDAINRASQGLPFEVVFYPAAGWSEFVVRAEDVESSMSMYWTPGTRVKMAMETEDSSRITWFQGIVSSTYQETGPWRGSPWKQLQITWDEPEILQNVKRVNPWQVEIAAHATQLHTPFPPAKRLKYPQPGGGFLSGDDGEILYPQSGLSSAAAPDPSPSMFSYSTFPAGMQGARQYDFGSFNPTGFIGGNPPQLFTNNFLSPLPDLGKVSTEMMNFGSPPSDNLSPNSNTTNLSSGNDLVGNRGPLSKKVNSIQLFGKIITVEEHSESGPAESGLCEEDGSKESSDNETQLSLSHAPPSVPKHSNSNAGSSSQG

Sample 1
Target: PABPC1L2, full length, GST fusion (mouse, UniProt A0ABA7IW68)
Technique: RNAcompete
Molecule type: RNA
Matrix: in vitro
Concentration: 20 nM
Notes: 7-mer, probes averaged, single round
Baseline: mean of 7-mers
Direction: higher = stronger binding
Strand | 7-mer Z-score
UUUAUCA | -0.106
UUCUAUA | -0.202
GAGGCUC | -0.00289
CGCUGCC | -0.309
ACUAGUA | -0.0989
CGGUUCU | -0.244
GUCACCA | -0.0971
GUGUCCU | -0.186
CACCGAU | -0.0754
GUUUGCA | -0.291

Sample 2
Target: Sal-like protein 4, full length isoform A (SALL4, Homo sapiens, UniProt Q9UJQ4, residues 1-1053)
UniProt Q9UJQ4, sequence (whole entry, looked up): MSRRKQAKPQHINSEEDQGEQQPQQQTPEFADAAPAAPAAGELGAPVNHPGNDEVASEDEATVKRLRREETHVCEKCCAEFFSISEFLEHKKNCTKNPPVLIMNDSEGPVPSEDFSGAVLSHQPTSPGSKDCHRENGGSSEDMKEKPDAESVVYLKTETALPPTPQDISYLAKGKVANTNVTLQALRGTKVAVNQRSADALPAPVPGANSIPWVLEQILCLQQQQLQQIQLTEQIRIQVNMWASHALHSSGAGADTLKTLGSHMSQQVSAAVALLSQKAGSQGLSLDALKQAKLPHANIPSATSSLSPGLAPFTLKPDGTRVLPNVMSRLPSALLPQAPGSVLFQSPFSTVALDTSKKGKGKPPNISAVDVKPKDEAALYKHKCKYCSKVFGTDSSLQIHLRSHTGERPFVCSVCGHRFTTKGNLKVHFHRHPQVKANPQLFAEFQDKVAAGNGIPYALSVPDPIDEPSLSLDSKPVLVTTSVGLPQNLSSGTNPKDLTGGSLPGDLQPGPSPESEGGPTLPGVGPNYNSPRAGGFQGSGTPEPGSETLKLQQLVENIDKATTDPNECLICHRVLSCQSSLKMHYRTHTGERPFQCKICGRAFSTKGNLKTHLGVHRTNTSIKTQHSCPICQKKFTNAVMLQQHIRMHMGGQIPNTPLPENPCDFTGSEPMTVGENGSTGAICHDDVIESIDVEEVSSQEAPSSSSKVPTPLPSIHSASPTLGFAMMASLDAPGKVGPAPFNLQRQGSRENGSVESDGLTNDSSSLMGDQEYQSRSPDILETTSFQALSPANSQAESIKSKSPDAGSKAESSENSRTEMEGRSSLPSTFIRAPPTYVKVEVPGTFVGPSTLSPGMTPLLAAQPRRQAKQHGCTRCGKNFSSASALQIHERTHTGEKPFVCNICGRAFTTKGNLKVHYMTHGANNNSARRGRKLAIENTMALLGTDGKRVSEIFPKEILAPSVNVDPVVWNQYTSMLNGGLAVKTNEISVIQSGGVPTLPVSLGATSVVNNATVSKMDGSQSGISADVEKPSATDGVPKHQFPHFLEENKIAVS
Technique: universal PBM
Molecule type: double-stranded DNA, one strand shown
Matrix: in vitro
Concentration: 600 nM
Notes: 8-mer, flanks averaged, mean of replicates
Direction: higher = stronger binding
Strand | E-score
CTACCCAC | -0.271
GAGTAACA | 0.154
AGCAGGAT | -0.0442
GGTGCATA | 0.0689
AGAGTCAT | 0.106
GAACTTTA | 0.114
TGGAGAAA | 0.00513
CTTGCCGC | -0.311
CACATCGG | -0.181
AGATGTCC | -0.0661
CGTTATTC | 0.0839
AAGCCAGA | -0.0828
CGTCCCAG | -0.221
ACTCGCCG | -0.18
TAACACTA | 0.325
AACGCTGG | -0.218
AGGGGTTC | -0.304
ATTTGCGA | 0.261
GATCCATC | -0.131
GCCTTTCA | -0.0474
ATACTTGG | 0.0352

Sample 3
Target: Interferon regulatory factor 3, full length, phosphomimetic (IRF3, Homo sapiens, UniProt Q14653, residues 1-427, S386D/S396D/S398D/S402D/T404D/S405D)
Technique: protein-binding microarray
Molecule type: double-stranded DNA, one strand shown
Matrix: in vitro
Concentration: 2540 nM top
Notes: 60-bp whole probe
Together with: salmon DNA 0.4 mg/ml
Baseline: random background probes
Direction: higher = stronger binding
All sequences stand within: GCCTAGCAC … GTCTTGATTCGCTTGACGCTGCTG
Construct (chain): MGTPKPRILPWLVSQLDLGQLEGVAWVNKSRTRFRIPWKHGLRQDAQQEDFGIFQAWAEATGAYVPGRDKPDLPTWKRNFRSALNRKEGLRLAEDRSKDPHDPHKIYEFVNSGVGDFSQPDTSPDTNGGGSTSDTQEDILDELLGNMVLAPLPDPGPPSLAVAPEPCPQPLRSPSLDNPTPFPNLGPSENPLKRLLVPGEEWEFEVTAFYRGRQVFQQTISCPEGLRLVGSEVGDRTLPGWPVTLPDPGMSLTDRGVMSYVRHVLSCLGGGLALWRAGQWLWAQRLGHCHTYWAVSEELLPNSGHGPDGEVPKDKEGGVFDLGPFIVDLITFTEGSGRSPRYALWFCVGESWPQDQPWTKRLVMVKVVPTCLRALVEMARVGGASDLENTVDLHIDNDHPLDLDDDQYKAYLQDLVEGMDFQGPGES
Strand | fitted relative affinity [z-score]
GACGATCTCATTTTCGAGACGTGCTAG | 1.91
GACGTACTGGGTATCGGGACGTGCTAG | 0.0558
TTAGAACTGGGGTATCGACTAGTGCTA | -0.609
GACGATTTCGGGTTTCGAGAAGTGCTA | 3.06
GACGGTCTCGGACTGGGCACGTGCTAG | 0.045
GACGGTTTCGACACTGGGGGCGTGCTA | 3.41
GACGTACTGAGACTGGAGACGTGCTAG | -0.16
GACGATTTCACTATCGAGACGTGCTAG | 2.6
GGGGGAAATGGGAAACCCGGGGTGCTA | 0.7
TTAGGACTGTACTATCGGTTAGTGCTA | 0.00424
GGACCGACCCCTCCATCCCTGTGCTAG | -0.25
TTAGGACTGGGTCTCGGTGAGTGCTAG | -0.945
TTCGATCTCAGTTTCGATTAGTGCTAG | 3.65

Sample 4
Target: CCNB2, cyclin fold, Cln2 fusion (human)
Technique: yeast growth competition, sequencing
Matrix: yeast
Notes: weak parent motif
Baseline: not given
Direction: higher = stronger binding
Parent: USP37 docking peptide (human); PSAKRSLGFLPQP; partner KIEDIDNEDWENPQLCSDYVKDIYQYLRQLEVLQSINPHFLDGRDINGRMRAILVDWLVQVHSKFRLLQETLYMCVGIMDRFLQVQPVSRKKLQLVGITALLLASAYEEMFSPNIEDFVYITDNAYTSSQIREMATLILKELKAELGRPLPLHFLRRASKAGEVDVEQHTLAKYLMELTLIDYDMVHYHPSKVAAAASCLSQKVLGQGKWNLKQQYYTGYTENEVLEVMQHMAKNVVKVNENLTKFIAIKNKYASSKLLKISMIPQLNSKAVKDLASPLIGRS
Change | normalised enrichment score
S6A | 0.307
P13A | 0.236
G8A | 0.57
K4A | 0.478
R5A | -0.0368
F9A | -0.0386

Sample 5
Target: ATF1, bZIP domain (human)
Technique: DHFR protein complementation
Matrix: yeast
Notes: single substitutions, most at no-binding floor
Baseline: wild-type JUN-FOS pair
Direction: higher = stronger binding
Parent: JUN, bZIP domain (human); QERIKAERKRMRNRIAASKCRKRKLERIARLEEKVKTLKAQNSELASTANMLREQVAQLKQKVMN; partner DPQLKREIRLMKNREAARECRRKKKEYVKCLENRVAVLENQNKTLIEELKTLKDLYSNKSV
Change | binding fitness [natural log]
T48V | -1.53
L38W | -1.45
A57N | -1.51
T48W | -1.43
N42M | -1.47
L52G | -1.53
Q55G | -1.54
Q55M | -1.5
V56M | -1.53
L52Y | -1.49
Q41W | -1.51
V56N | -1.49
Q41E | -1.44

Sample 6
Target: Histone acetyltransferase KAT6A, both winged helices, GST fusion (KAT6A, Homo sapiens, UniProt Q92794, residues 1-181)
Technique: protein binding microarray
Molecule type: double-stranded DNA, one strand shown
Matrix: in vitro
Concentration: not given
Notes: 8-mer, flanks averaged, mean of 2 arrays, mostly near background
Baseline: not given
Direction: higher = stronger binding
Target sequence (chain): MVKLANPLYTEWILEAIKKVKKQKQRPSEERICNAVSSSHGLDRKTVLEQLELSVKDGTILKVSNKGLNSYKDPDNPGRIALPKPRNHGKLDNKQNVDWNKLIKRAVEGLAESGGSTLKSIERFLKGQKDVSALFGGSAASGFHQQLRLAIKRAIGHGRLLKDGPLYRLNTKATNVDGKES
Strand | E-score
CGCAAGTA | 0.0892
AGGCGTAA | -0.0529
GAAGTTGA | -0.171
GATAGCAA | -0.224
CCATAACC | -0.214
GCTTTCCC | 0.105
ATTAGTGA | -0.0714
AGCGCTAT | 0.323
ACTCTGAC | -0.0461
ACCTCACC | -0.157
GATCGCCC | 0.0345
CTCTACAG | -0.0929
CAATTCAC | 0.0738
CCATTTAA | -0.113
ATTTCCGA | 0.0191
AACCAGCG | 0.146
AAGCCGAT | 0.15
AAGCTTGA | -0.102

Sample 7
Target: ABI1, truncated, D143A, DHFR fusion (Arabidopsis thaliana)
Technique: DHFR PCA, deep sequencing
Matrix: yeast
Notes: methotrexate growth selection, single substitutions
Together with: (+)-ABA 0.39 µM
Baseline: wild-type fitted maximum
Direction: higher = stronger binding
Parent: PYL1, truncated, DHFR fusion (Arabidopsis thaliana); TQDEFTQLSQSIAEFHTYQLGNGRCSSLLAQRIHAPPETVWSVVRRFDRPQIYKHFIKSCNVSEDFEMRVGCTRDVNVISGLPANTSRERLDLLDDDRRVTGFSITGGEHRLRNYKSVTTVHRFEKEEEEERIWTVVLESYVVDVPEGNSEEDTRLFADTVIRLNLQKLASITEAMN
Change | relative binding score [%]
R99L | 66.9
C60P | 9.88
E130W | 4.22
I162K | -1.7
V161T | 19.3
N85A | 63.8
L169C | -2.27
N177F | 46.2
V100C | 6.83
L164K | -3.32
A84D | 23.5
F103I | -6.57
T6C | 41.8
S26K | 1.08
E131C | 46.2
E38N | -4.68

Sample 8
Target: Prothrombin, mature alpha-thrombin (F2, Homo sapiens, UniProt P00734)
Technique: aptamer microarray, sandwich
Molecule type: DNA with 2'F-ANA
Matrix: in vitro
Concentration: 200 nM
Notes: whole 15-mer aptamer, many near background
Together with: Cy3 exosite-II aptamer, 400 nM
Direction: higher = stronger binding
Strand: GGTTGGTGTGGTTGG
Modification | mean fluorescence intensity
2'F-ANA at 1 5 7 8 10 12 13 14 15 | 48.4 a.u.
2'F-ANA at 1 6 7 10 11 12 13 15 | 67.9 a.u.
2'F-ANA at 2 3 4 5 7 9 11 12 13 14 | 162 a.u.
2'F-ANA at 2 3 4 11 12 13 14 | 303 a.u.
2'F-ANA at 1 2 8 9 11 14 | 54.9 a.u.
2'F-ANA at 2 3 6 11 12 13 15 | 639 a.u.
2'F-ANA at 3 5 7 8 10 13 | 55.6 a.u.
2'F-ANA at 1 2 3 4 5 6 9 11 13 14 | 51.6 a.u.
2'F-ANA at 3 5 9 11 13 15 | 81.1 a.u.
2'F-ANA at 1 3 5 6 7 8 9 12 | 161 a.u.
2'F-ANA at 1 2 4 5 6 8 | 71.8 a.u.
2'F-ANA at 3 4 7 9 11 13 | 581 a.u.
2'F-ANA at 1 2 3 4 6 9 13 14 15 | 57.6 a.u.
2'F-ANA at 3 6 7 9 10 11 | 452 a.u.
2'F-ANA at 2 3 5 8 10 11 12 14 | 73.8 a.u.
2'F-ANA at 1 4 7 9 10 13 | 46.7 a.u.
2'F-ANA at 2 3 5 6 8 9 13 15 | 92.5 a.u.

Sample 9
Molecule: B1 (IAA3)
Technique: two-hybrid
Baseline: out of 4 tests
Direction: higher = firmer interaction
B1: IAA3 (Arabidopsis thaliana, UniProt Q38822); chain MDEFVNLKETELRLGLPGTDNVCEAKERVSCCNNNNKRVLSTDTEKEIESSSRKTETSPPRKAQIVGWPPVRSYRKNNIQSKKNESEHEGQGIYVKVSMDGAPYLRKIDLSCYKGYSELLKALEVMFKFSVGEYFERDGYKGSDFVPTYEDKDGDWMLIGDVPWEMFICTCKRLRIMKGSEAKGLGCGV
partner | notes | positive tests
ARF17 (Arabidopsis thaliana, UniProt Q84WU6) | weak activation fusion | 0
ARF12 500-593 (Arabidopsis thaliana, UniProt Q9XID4) | – | 0
IAA30 (Arabidopsis thaliana, UniProt Q9M1R4) | weak activation fusion | 2
IAA33 (Arabidopsis thaliana, UniProt Q9FKM7) | – | 1
IAA17 (Arabidopsis thaliana, UniProt P93830) | – | 4
